Assay results pooled from the literature.
± marks the error that the study gave.
Organism: Escherichia coli

Structure (SMILES) = Cc1cc(N)c2cc(NC(=O)c3ccc4c(-c5ccccc5O)cccc4c3)ccc2n1; test system = hyperporinated wild type; MIC = 25 µM
Structure (SMILES) = CCCCCCCCCCCCCC(=O)NCCCC[C@H](N)C(=O)N[C@@H](CCCCN)C(=O)N[C@@H](CCCCN)C(=O)N[C@@H](CCCCN)C(=O)N[C@@H](CCCCN)C(=O)N[C@@H](CCCCN)C(N)=O; test = broth microdilution; test system = K12, water pH 7; conditions = 18 h, 37 °C; MIC = 32 µg/mL
Structure (SMILES) = CC(C)C[C@H](NC(=O)[C@H](Cc1ccc(O)cc1)NC(=O)[C@@H]1CCCN1C(=O)[C@H](CCCNC(=N)N)NC(=O)[C@@H]1CCCN1C(=O)[C@H](CCCCN)NC(=O)[C@H](CC(=O)O)NC(=O)[C@@H]1CCCN1C(=O)[C@H](CCCNC(=N)N)NC(=O)C1(N)CCCCC1)C(=O)N1CCC[C@H]1C(=O)N[C@@H](CCCNC(=N)N)C(=O)N1CCC[C@H]1C(=O)N[C@@H](CCCNC(=N)N)C(=O)N1CCC[C@H]1C(=O)N1CCC[C@H]1C(=O)N[C@@H](CCCNC(=N)N)C(=O)N1CCC[C@H]1C(=O)N[C@H](C(=O)N[C@@H](CCCNC(=N)N)C(=O)N[C@@H](CSc1c(F)c(F)c(SC[C@H](NC(=O)[C@H](CCCNC(=N)N)NC(=O)[C@@H](NC(=O)[C@@H]2CCCN2C(=O)[C@H](CCCNC(=N)N)NC(=O)[C@@H]2CCCN2C(=O)[C@@H]2CCCN2C(=O)[C@H](CCCNC(=N)N)NC(=O)[C@@H]2CCCN2C(=O)[C@H](CCCNC(=N)N)NC(=O)[C@@H]2CCCN2C(=O)[C@H](CC(C)C)NC(=O)[C@H](Cc2ccc(O)cc2)NC(=O)[C@@H]2CCCN2C(=O)[C@H](CCCNC(=N)N)NC(=O)[C@@H]2CCCN2C(=O)[C@H](CCCCN)NC(=O)[C@H](CC(=O)O)NC(=O)[C@@H]2CCCN2C(=O)[C@H](CCCNC(=N)N)NC(=O)C2(N)CCCCC2)C(C)C)C(=O)NN)c(F)c1F)C(=O)NN)C(C)C; test = bacterial growth; test system = ATCC 25922, 100% Mueller-Hinton broth; conditions = 90 min, 37 °C, strain ATCC 25922; MIC = 6.7 ± 0.9 µg/mL
Structure (SMILES) = CC[C@H](C)[C@H](NC(=O)[C@H](CO)NC(=O)[C@H](CO)NC(=O)[C@H](Cc1ccccc1)NC(=O)CN)C(=O)N[C@@H](Cc1ccccc1)C(=O)N[C@@H](CCCNC(=N)N)C(=O)NCC(=O)N[C@H](C(=O)N[C@@H](C)C(=O)N[C@@H](CCCCN)C(=O)N[C@@H](Cc1ccccc1)C(=O)N[C@@H](C)C(=O)N[C@@H](CO)C(=O)N[C@@H](CCCCN)C(=O)NCC(=O)N[C@@H](CC(C)C)C(=O)NCC(=O)N[C@@H](CCCCN)C(N)=O)C(C)C; test system = ATCC 8739; conditions = pretreated trypsin 1 mg/mL; MIC = > 128 µM
Structure (SMILES) = CCCCCCCCCCCCCCCCCC(=O)N[C@@H](CCCNC(=N)N)C(=O)N[C@@H](CCCNC(=N)N)C(=O)N[C@@H](CCCNC(=N)N)C(=O)N[C@@H](CCCNC(=N)N)C(=O)N[C@@H](CCCNC(=N)N)C(N)=O; test = broth microdilution; test system = K12; conditions = 16-24 h, 37 °C, prepared at pH 7; MIC = ≥ 32 µg/mL
Structure (SMILES) = CC[C@H](C)[C@H](NC(=O)[C@H](C)NC(=O)[C@@H](NC(=O)[C@H](CC(=O)O)NC(=O)[C@H](CCCCN)NC(=O)[C@H](CO)NC(=O)[C@@H](NC(=O)[C@H](CC(N)=O)NC(=O)[C@H](C)NC(=O)[C@@H](NC(=O)[C@H](CCC(=O)O)NC(=O)[C@H](CCCCN)NC(=O)[C@@H](NC(=O)[C@@H](NC(=O)[C@H](Cc1c[nH]cn1)NC(=O)[C@H](CCCCN)NC(=O)[C@@H](NC(=O)[C@H](CCCCN)NC(=O)[C@H](CCCCN)NC(=O)[C@@H](NC(=O)[C@H](CC(C)C)NC(=O)[C@H](CCCCN)NC(=O)[C@H](CC(N)=O)NC(=O)[C@H](Cc1ccccc1)NC(=O)[C@H](CCCNC(=N)N)NC(=O)[C@H](CCCCN)NC(=O)[C@H](CCCNC(=N)N)NC(=O)[C@H](Cc1ccccc1)NC(=O)CN)C(C)C)C(C)C)[C@@H](C)O)[C@@H](C)CC)[C@@H](C)O)C(C)C)C(C)C)C(=O)N[C@H](C(=O)N[C@@H](C)C(=O)NCC(=O)N[C@@H](CO)C(=O)NCC(=O)N[C@H](C(=O)N[C@@H](C)C(=O)N[C@H](C(=O)NCC(=O)N[C@@H](C)C(=O)N[C@@H](C)C(=O)N[C@@H](CCSC)C(N)=O)C(C)C)C(C)C)C(C)C; test = broth microdilution; test system = ATCC 25922, CAMHB; MIC = 4 µg/mL
Structure (SMILES) = CC(C)[C@@H]1NC(=O)[C@@H]2CCCN2C(=O)[C@@H](C)NC(=O)[C@H](CO)NC(=O)[C@H](C)NC(=O)[C@H](C(C)(C)C)NC(=O)[C@H](CCO)NC(=O)[C@H](Cc2c[nH]c3ccccc23)NC(=O)[C@H](CCO)NC(=O)[C@@H](CCN)NC(=O)[C@H](CCC(N)=O)NC(=O)[C@H](CCN)NC(=O)[C@H](Cc2ccc(O)cc2)NC(=O)[C@H]([C@@H](C)O)NC1=O; test = broth microdilution; test system = ATCC 35218, CAMHB with polysorbate-80; conditions = 16 h; MIC = > 64 µg/mL
Structure (SMILES) = CC[C@H](C)[C@H](NC(=O)[C@H](CC(C)C)NC(=O)[C@H](CCC(=O)O)NC(=O)[C@H](CO)NC(=O)[C@H](CCCNC(=N)N)NC(=O)[C@@H](N)CO)C(=O)N[C@H](C(=O)N[C@@H](CCCNC(=N)N)C(=O)N[C@@H](CCC(N)=O)C(=O)N[C@@H](CCCNC(=N)N)C(=O)N[C@@H](CC(C)C)C(=O)N[C@@H](Cc1ccccc1)C(N)=O)C(C)C; test = broth microdilution; test system = Mueller Hinton broth; MIC = > 400 µg/mL
Structure (SMILES) = CC(C)[C@H](NC(=O)[C@H](CCCCN)NC(=O)[C@H](CCCNC(=N)N)NC(=O)[C@@H](NC(=O)[C@H](C)NC(=O)[C@H](CC(N)=O)NC(=O)[C@H](CCCNC(=N)N)NC(=O)[C@@H](NC(=O)[C@H](CCCCN)NC(=O)[C@H](CCCCN)NC(=O)[C@@H](NC(=O)[C@@H](NC(=O)[C@H](CCCNC(=N)N)NC(=O)[C@H](CCCNC(=N)N)NC(=O)[C@H](Cc1c[nH]c2ccccc12)NC(=O)[C@H](Cc1c[nH]c2ccccc12)NC(=O)CN)[C@@H](C)O)C(C)C)C(C)C)C(C)C)C(=O)O; test system = ATCC 25922; conditions = 18 h, 37 °C; MIC = 8 µg/mL
Structure (SMILES) = CC[C@H](C)[C@H](NC(=O)[C@@H](Cc1ccccc1)NC)C(=O)N[C@@H](CO)C(=O)N[C@H](CCCNC(=N)N)C(=O)N[C@@H](C(=O)N[C@H](C(=O)OC[C@H](N)C(=O)N[C@H]1C(=O)N[C@@H](C)C(=O)N[C@@H](CC(C)C)C(=O)N[C@@H]([C@@H](C)CC)C(=O)O[C@H]1C)[C@@H](C)CC)[C@@H](C)CC; test = broth microdilution; test system = ATCC 10798, Mueller-Hinton broth; conditions = 16 h, 37 °C; MIC = > 8 µg/mL
Structure (SMILES) = CC[C@H](C)[C@H](N)C1=N[C@H](C(=O)N[C@@H](CC(C)C)C(=O)N[C@H](CCC(=O)O)C(=O)N[C@H](C(=O)N[C@H]2CCCCNC(=O)[C@H](CC(N)=O)NC(=O)[C@@H](CC(=O)O)NC(=O)[C@H](Cc3c[nH]cn3)NC(=O)[C@@H](Cc3ccc(-c4ccccc4)cc3)NC(=O)[C@H]([C@@H](C)CC)NC(=O)[C@@H](CCCN)NC2=O)[C@@H](C)CC)CS1; test = broth microdilution; test system = ATCC 25922, LB medium; conditions = 18 h, 37 °C, together with: ZnSO4 0.3 mM; MIC = > 64 µg/mL
Structure (SMILES) = CCCCCCCCCCCCCCCCCCCCCCSCC1OC(OC2C(N)CC(N)C(OC3OC(CN)C(O)CC3N)C2O)C(O)C(N)C1O (centres unmarked); test system = BL21(DE3) AAC(3)-IV; MIC = > 150 µg/mL
Structure (SMILES) = CC1C(=NOCc2cn(-c3ccccc3)nn2)C(C)C(c2ccc(Br)cc2)OC1c1ccc(Br)cc1 (centres unmarked); test = microbial growth, broth dilution; test system = MTCC443; conditions = 24 h; MIC = 6.3 µg/mL
Structure (SMILES) = CCCCCCCCCCCC[S+]([O-])CC1OC(OC2C(N)CC(N)C(OC3OC(CN)C(O)CC3N)C2O)C(O)C(N)C1O (mixture of isomers); test system = MC1061; MIC = 18.8 µg/mL
Structure (SMILES) = CCCCCCCCCCCCCC(=O)N[C@@H](CCCCN)C(=O)N[C@@H](CCCCN)C(=O)N[C@@H](CCCCN)C(=O)N[C@@H](CCCCN)C(N)=O; test = broth microdilution; test system = K12, water pH 7; conditions = 18 h, 37 °C; MIC = 32 µg/mL
Structure (SMILES) = Cc1cc(N)c2cc(NC(=O)c3ccc4cc(C5CC5)ccc4c3)ccc2n1; test system = hyperporinated ΔtolC; MIC = 100 µM
Structure (SMILES) = CC(C)C[C@H](NC(=O)[C@H](CC(C)C)NC(=O)[C@H](CCCCN)NC(=O)CNC(=O)[C@H](CC(C)C)NC(=O)[C@H](CC(C)C)NC(=O)[C@H](CO)NC(=O)[C@H](CC(C)C)NC(=O)[C@H](CC(C)C)NC(=O)[C@@H]1CCCN1C(=O)[C@H](CC(C)C)NC(=O)[C@H](CC(C)C)NC(=O)CN)C(N)=O; test = broth microdilution; test system = K12; MIC = 25 µM
Structure (SMILES) = CC[C@H](C)[C@@H]1NC(=O)CNC(=O)[C@H](CCCCN)NC(=O)[C@H](C)NC(=O)[C@H](CCC(=O)O)NC(=O)[C@H](Cc2ccccc2)NC(=O)[C@H](CO)NC(=O)[C@H](CC(C)C)NC(=O)[C@H](C(C)C)NC(=O)[C@H](CC(=O)O)NC(=O)[C@@H](NC(=O)[C@@H](NC(=O)[C@@H](N)C(C)C)[C@@H](C)O)CSSC[C@@H]2NC(=O)[C@H](CO)NC(=O)CNC(=O)CNC(=O)[C@H](CCCCN)NC(=O)[C@H](CCCCN)NC(=O)[C@H](CCCNC(=N)N)NC(=O)[C@H](CC(C)C)NC(=O)[C@H](C)NC(=O)[C@H]([C@@H](C)CC)NC(=O)[C@H](C)NC(=O)[C@H](Cc3c[nH]cn3)NC(=O)[C@H](CC(C)C)NC(=O)[C@H](C)NC(=O)[C@H](CSSC[C@@H](C(=O)N[C@H](C(=O)N[C@@H](C)C(=O)N[C@@H](CCCNC(=N)N)C(=O)N[C@@H](CC(N)=O)C(=O)O)C(C)C)NC(=O)[C@H](C(C)C)NC(=O)CNC(=O)[C@H](CC(N)=O)NC(=O)[C@H](CCC(N)=O)NC2=O)NC(=O)[C@H](C)NC(=O)[C@H](CO)NC(=O)[C@H](Cc2c[nH]cn2)NC(=O)[C@H](CC(N)=O)NC(=O)[C@H](C(C)C)NC(=O)[C@H](C)NC1=O; test = broth microdilution; test system = KCTC 1682; conditions = 16 h, 37 °C; MIC = > 100 µM
Structure (SMILES) = CCOC(=O)c1cnc(N2CC[C@@H](NC(=O)c3[nH]c(C)c(Cl)c3Cl)[C@@H](OC)C2)o1; test system = ATCC 25922; MIC = > 128 µg/mL
Structure (SMILES) = CC(C)C[C@@H]1NC(=O)[C@H](C)NC(=O)[C@H](NC(=O)[C@H](CO)NC(=O)[C@@H](CCCCN)NC(=O)[C@@H](CC(C)C)NC(=O)[C@@H](N)Cc2ccccc2)[C@H](C)OC(=O)[C@H](CC(C)C)NC1=O; test system = ATCC 10798; conditions = TFA salt; MIC = > 32 µg/mL
